Experimental data collected from several papers.
Parts stem from different laboratories: compare values within a part only. Changes are numbered by the printed parent chain.

Sample 1
Target: RNA binding protein fox-1 homolog 2, RRM domain, GST-SBP tag (RBFOX2, Homo sapiens, UniProt O43251-10, residues 100-194)
Method: RNA Bind-n-Seq
Form: RNA
Matrix: in vitro
Concentration: 365 nM
Setting: natural RNA segment, single round, ends assumed
Reference: no-protein control
Direction: higher = stronger binding
Shared flanks, not repeated: GGGAGUUCUACAGUCCGACGAUC … UGGAAUUCUCGGGUGCCAA
Residues (chain): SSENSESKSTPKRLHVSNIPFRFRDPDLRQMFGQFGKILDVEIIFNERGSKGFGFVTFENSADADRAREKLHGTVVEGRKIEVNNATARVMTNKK
| Sequence | RBNS enrichment (R) |
| --- | --- |
| GUCCGGCUCUGCGUCUCCCUCUCUGCAGCCUGUGUAAGCUAUUAUAAUUAAAAUGGUUUUCCGGGAAGGGAUGAGUGUGAUGUCCUUGAGAGGAAAUGAAUGUCCUGGCC | 2.13 |
| CUACAGCUCCAUCAAAACCUUUCAUUCACUGCCAAUGAGGAGCACUUUCUUUCUGUAGCAUAGCUUCUGUCUCAGAUGCCCCAGCAAAUAAAUGCUGUCUCUUAUUGGUC | 0.357 |
| ACAUCUGCCUGAGGUCAGGAGGCAAUUUGCCUGCCUUGUACAAAAGCUCAGGUGAAAGACUGAGAUGAAUGUCUUUCCUCUCCCUGCCUCCCACCAGACUUCCUCCUGGA | 0.29 |
| UGGCUGUUGAACCUUGAUGUAGCCCCUACUACAUACACUACAAGUUAUGCCUUCUGGCUACUACAGAAUCUCCGCAGACCUUUUAGUUAUGAGUAGAAGCAAUAAGAAGG | 0.452 |
| UGUGUUCUGUGCUUCAGGCUCUGGAUCAUCACCCCCGCUGCUCUCCCAUUCCGGUACCUAAGUAACAUCUAUGCAAAGAAACACAUUAAAAGCAGCAAUAAAACUGCUCC | 0.275 |
| UACCAUGUGACCGGAGCAGAGGAAUUUGAAUUUGGCAGGAGCUUUUUCUACUGGAGAGACCCUCACUUUGGGGUGAUGGUCCUGACCUAGACCCAGAGUCUGGAAGCUUC | 0.291 |
| AAAAAUUAAAUAAAACUAAUAUGAACAUAAAGAGGAAAUAAAAGGUACCUAACUUGGGCACAGCUGUAACUGAAGACCUAAUGAAGUAGUCAGAUGCUUACAACUAUUUA | 0.742 |
| UCUGCAGGGUGGGCCUGAUCCCAGAGUGGUGCUUACUGUGCUGACUGUGUACUUAUCUUCCCCAAGAGAAAAUGCUUCUUUUGAGCACACUGUACCUACCAUCUGCAUUG | 0.376 |
| CCAAAGUCUUUCCCAGCACCUCUUGUAUUCAUUAUCAAAUAUAUACAUGUAAGUUUGAAGUAUUACUGUUUUCUCAGCAUGAAUUAAAAAUAUUCUGUAACUCAGCCAGG | 1.23 |
| CCGGCUGUGGGUCCACCCCAGCCGAGGGACUCCUGGCCUGCAUUGCGGGAUUGUCAGUGGCAUUUAGUUGAGAGUUGAGGGGCUUUGGCCUGAAAUAAACUGCAAGUAUU | 2.96 |
| UUUUGAUUCAGAAAUAUAUGAAAUCUGCAUAGUCUUAAUUUGUAAAAAAUAAAGAAAAUUCCUUAACCUUUCCUGGUGUUUGUGUUAAAUUCAAGGGUACAGCUGGUCAU | 0.49 |
| GGAGCUGAGGGGACGGUCUUCGGCUCCUCUGCACCCCGUGAUUCUGCCCACGCUCCUCCACCACGAGGCACUGACCUGCGUCGGGUGGUGACCGUGGCUGGCGGUCACGC | 0.224 |

Sample 2
Target: Interferon regulatory factor 3, full length, phosphomimetic (IRF3, Homo sapiens, UniProt Q14653, residues 1-427, S386D/S396D/S398D/S402D/T404D/S405D)
Method: protein-binding microarray
Form: double-stranded DNA, one strand shown
Matrix: in vitro
Concentration: 2540 nM top
Setting: 60-bp whole probe
With: salmon DNA 0.4 mg/ml
Reference: random background probes
Direction: higher = stronger binding
Shared flanks, not repeated: GCCTAGCAC … GTCTTGATTCGCTTGACGCTGCTG
Residues (chain): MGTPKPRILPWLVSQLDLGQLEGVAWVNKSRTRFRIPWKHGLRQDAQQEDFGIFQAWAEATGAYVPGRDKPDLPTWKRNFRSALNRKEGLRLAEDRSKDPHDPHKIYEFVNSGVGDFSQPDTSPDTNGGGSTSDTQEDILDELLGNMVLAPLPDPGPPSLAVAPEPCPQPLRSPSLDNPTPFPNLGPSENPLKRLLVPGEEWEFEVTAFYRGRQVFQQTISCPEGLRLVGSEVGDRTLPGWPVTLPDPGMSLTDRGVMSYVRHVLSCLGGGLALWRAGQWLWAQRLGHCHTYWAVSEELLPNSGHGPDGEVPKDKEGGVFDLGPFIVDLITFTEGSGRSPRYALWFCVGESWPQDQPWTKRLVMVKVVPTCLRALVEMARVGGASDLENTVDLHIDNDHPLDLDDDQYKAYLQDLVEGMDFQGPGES
| Sequence | fitted relative affinity [z-score] |
| --- | --- |
| GACGGTTCCGGATTCGGGACGTGCTAG | 3.99 |
| TTAGATTTTAGTTTCGATTAGTGCTAG | 5 |
| AACGGTATCGGTTTCGGGACGTGCTAG | 7.08 |
| GACGGACTGCTTTTCCTGACGTGCTAG | -0.117 |
| TTAGATTCCAGTTTCGCTTAGTGCTAG | 4.67 |
| GACGGATTCGACTTTCGGGACGTGCTA | 1.29 |
| TTAGGTTTCGACTTTTGGTTAGTGCTA | 2.95 |
| TTAGGGCTCGGTCTCGGTTAGTGCTAG | -0.154 |
| TTAGAGTTCGGGTATCGATTAGTGCTA | 0.0041 |
| GACGCTATCGGTCTCGGGACGTGCTAG | 1.31 |
| GACGGTTTCGCCTTTCGGGACGTGCTA | 3.91 |
| GACGGTTTCCTTATCCTGAGGTGCTAG | 8.09 |
| TTAGATCGCAGTCTCGATTAGTGCTAG | 0.209 |
| CTCCCCCTCAGATCTGCCGTCGTGCTA | 0.136 |
| GACGGTATCGGGTTTCGGGGCGTGCTA | 2.72 |
| GGTGGTCTGGGACCCTCCCCGTGCTAG | -1.14 |
| CAGGCAGGAGAAGTGAATGAGTGCTAG | -0.702 |
| TGAGGTATCCTTATCCTTTAGTGCTAG | 4.95 |
| TCACATGTTTTTTTCTAACTGTGCTAG | 0.597 |
| TCACTTTTATCCCTGACACTGTGCTAG | 1.42 |
| TTAGGTTTCGGGACTGGGTAAGTGCTA | 4.21 |
| TTAGGTATTGGTTTCGGTTAGTGCTAG | 5.75 |
| GACGAACTGGGGTTTGGAGACGTGCTA | -0.476 |
| TTAGGTATCGACTATCAGTTAGTGCTA | 0.295 |
| GACTATATCGGGTTTCGAGACGTGCTA | 1.04 |

Sample 3
Target: Ras GTPase-activating protein-binding protein 1, full length (G3BP1, Homo sapiens, UniProt Q13283)
Sequence of UniProt Q13283 (whole entry, looked up): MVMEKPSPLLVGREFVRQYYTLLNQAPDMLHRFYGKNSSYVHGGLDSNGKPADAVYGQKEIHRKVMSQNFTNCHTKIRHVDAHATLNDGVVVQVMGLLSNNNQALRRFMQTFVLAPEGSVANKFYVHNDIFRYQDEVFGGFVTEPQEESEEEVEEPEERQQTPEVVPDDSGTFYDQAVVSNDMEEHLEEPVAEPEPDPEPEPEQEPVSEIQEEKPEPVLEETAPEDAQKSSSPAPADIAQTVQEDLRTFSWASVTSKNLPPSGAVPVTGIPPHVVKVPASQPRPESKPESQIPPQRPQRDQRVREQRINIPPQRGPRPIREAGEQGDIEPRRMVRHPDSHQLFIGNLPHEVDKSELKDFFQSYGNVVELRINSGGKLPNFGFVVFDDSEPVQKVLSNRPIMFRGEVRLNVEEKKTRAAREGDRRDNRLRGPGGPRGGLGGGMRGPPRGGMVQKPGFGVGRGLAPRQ
Method: RNA Bind-n-Seq
Form: RNA
Matrix: in vitro
Concentration: 200 nM
Setting: whole 134-nt RNA, ends assumed
With: 150 mM KCl
Reference: input library
Direction: higher = stronger binding
Shared flanks, not repeated: GGGAGUUCUACAGUCCGACGAUC … UGGAAUUCUCGGGUGUCAAGG
| Sequence | log2 enrichment |
| --- | --- |
| AAGUCCUGUGCUACACAUCGUAUGUACCGAAUCGGCCCCGGGGCCCCGGCCCCGGGAAAGUAUUAUGUUACGCCGUUCGGAUCUGCACUU | -1.28 |
| UGGCCCUGGUGGCAUGCGGGGAGGAAGAGGUGGCCUCAUGGAUCGUGGUGGUCCGGGUGGAAUGUUCAGAGGUGGCCGUGGUGGAGACAG | 0.141 |
| GUCCUGUGCUACACAUCGUAUGUACCGAAUCGGGUUUUUGGGAAAAAAAGGGUUUGGGAAAGUAUUAUGUUACGCCGUUCGGAUCUGCAC | -0.458 |
| UGGCCCUGGUGGCAUGCGGGGAGGAAGAGGUGGCCUCAUGGGUCGUGGUGGUCCCGGUGGAAUGUUCAGAGGUGGCCGUGGUGGAGACAG | 0.155 |
| UCCUCAAGUCCUGUGCUACACAUCGUAUGUACCGAAUCGGGCGGCGGCGGGGAAAGUAUUAUGUUACGCCGUUCGGAUCUGCACUUCCAG | 0.202 |
| CCUGUGCUACACAUCGUAUGUACCGAAUCGGGGUUUUUUUGGUUUUUUUGGUUUUUUUGGGAAAGUAUUAUGUUACGCCGUUCGGAUCUG | -0.953 |
| CUGUGCUACACAUCGUAUGUACCGAAUCGGGGUUUUUUUGGGGUUUUUUUGGGGAAAGGGGAAAGUAUUAUGUUACGCCGUUCGGAUCUG | -0.168 |
| AAGUCCUGUGCUACACAUCGUAUGUACCGAAUCGGGUUUUUUUGGGAGGGUUUGGGAAAGUAUUAUGUUACGCCGUUCGGAUCUGCACUU | -0.135 |
| AAGUCCUGUGCUACACAUCGUAUGUACCGAAUCGGUUUUUGGAAAGGAAAAAAAGGAAAGUAUUAUGUUACGCCGUUCGGAUCUGCACUU | -1.1 |
| UCAAGUCCUGUGCUACACAUCGUAUGUACCGAAUCGGUUUGGAGGUUUUUUUGGAAAGUAUUAUGUUACGCCGUUCGGAUCUGCACUUCC | -0.567 |
| UAACUUUAGAGGAGGAUCUGAUGGAUAUGGCAGUGGACGUGGAUUUGGGGAUGGCUAUAAUGGGUAUGGAUGAGGACCUGGAGGUGGCAA | 0.333 |
| UAACUUUAGAGGAGGAUCUGAUGGAUACGGCAGUGGACGUGGAUUUGGGGAUGGCUAUAAUGGGUAUGGAGGAGGACCUGGAGGUGGCAA | 0.392 |
| UUUCACAGAGAAGCAAAUGCUGGCACAAGGAUACCCUGCUUACACGACAUCGUGCGCCUGGCUGGGGUACUCAGAUGACACGUUGAAGCA | -0.474 |
| GCAGGAAGUAAAAACAAAUGGAAAUGCUUCGGAUAGUGGCAGGGGUGGGGGUUGCUAAGGUAAGGGUGGGAUGGGAGUGGGUAAAGAGUU | 0.69 |

Sample 4
Target: PABPC1L2, full length, GST fusion (mouse, UniProt A0ABA7IW68)
Method: RNAcompete
Form: RNA
Matrix: in vitro
Concentration: 20 nM
Setting: 7-mer, probes averaged, single round
Reference: mean of 7-mers
Direction: higher = stronger binding
Residues (chain): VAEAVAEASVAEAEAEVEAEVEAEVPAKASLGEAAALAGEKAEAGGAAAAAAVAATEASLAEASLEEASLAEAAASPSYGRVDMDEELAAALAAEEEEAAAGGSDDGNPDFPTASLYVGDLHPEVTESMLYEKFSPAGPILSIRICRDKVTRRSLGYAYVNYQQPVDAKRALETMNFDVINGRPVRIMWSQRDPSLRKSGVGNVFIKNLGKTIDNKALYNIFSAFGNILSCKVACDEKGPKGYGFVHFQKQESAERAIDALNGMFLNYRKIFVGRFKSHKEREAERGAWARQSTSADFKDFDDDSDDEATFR
| Sequence | 7-mer Z-score |
| --- | --- |
| CAGGUGG | 0.106 |
| ACAUAUA | 0.0877 |
| CACCCCU | -0.253 |
| AGUUUAA | -0.0409 |
| CUCCGCA | -0.251 |
| UAAGAGC | -0.133 |
| AGUUCGC | -0.42 |
| GUGGUCA | 0.037 |
| CGUAGGC | -0.124 |
| AAGAUGA | 0.37 |
| GGGUCUU | -0.126 |
| UAGCGCA | -0.0373 |
| UUGGUAG | -0.19 |
| GGAAUGG | 0.135 |
| AAGUCGG | -0.00289 |
| GACAGCC | -0.151 |
| CGCCGCG | -0.492 |
| CGACCAA | 0.0605 |

Sample 5
Target: CCNE2, cyclin fold, Cln2 fusion (human)
Method: yeast growth competition, sequencing
Matrix: yeast
Setting: weak parent motif
Reference: not given
Direction: higher = stronger binding
Starting sequence: PKN2 docking peptide (human); VSAVQKLDFSDTM
| Change | normalised enrichment score |
| --- | --- |
| VSAVQKLDFSDTQ [M13Q] | -0.129 |
| VSAVQKLPFSDTM [D8P] | 0.429 |
| VSAVQKLTFSDTM [D8T] | -0.524 |
| VSALQKLDFSDTM [V4L] | 0.206 |
| VSAVQKLDFSDTE [M13E] | 0.412 |
| VSAVQKLDFSETM [D11E] | -0.61 |
| VSAVQKLDFSDEM [T12E] | 0.566 |
| VQAVQKLDFSDTM [S2Q] | 0.312 |
| VSYVQKLDFSDTM [A3Y] | 0.418 |
| VSAVQKLDFLDTM [S10L] | -0.139 |
| VSAVQKLDFSVTM [D11V] | 0.438 |
| VSAVQKLFFSDTM [D8F] | 0.0888 |
| VSAVQILDFSDTM [K6I] | -0.309 |
| VSAVQKLDFSDFM [T12F] | 0.565 |

Excerpt of the above (sample 3):
| Sequence | log2 enrichment |
| --- | --- |
| GUCCUGUGCUACACAUCGUAUGUACCGAAUCGGGUUUUUGGGAAAAAAAGGGUUUGGGAAAGUAUUAUGUUACGCCGUUCGGAUCUGCAC | -0.458 |
| UGGCCCUGGUGGCAUGCGGGGAGGAAGAGGUGGCCUCAUGGAUCGUGGUGGUCCGGGUGGAAUGUUCAGAGGUGGCCGUGGUGGAGACAG | 0.141 |
| UCAAGUCCUGUGCUACACAUCGUAUGUACCGAAUCGGUUUGGAGGUUUUUUUGGAAAGUAUUAUGUUACGCCGUUCGGAUCUGCACUUCC | -0.567 |
| UAACUUUAGAGGAGGAUCUGAUGGAUACGGCAGUGGACGUGGAUUUGGGGAUGGCUAUAAUGGGUAUGGAGGAGGACCUGGAGGUGGCAA | 0.392 |
| UAACUUUAGAGGAGGAUCUGAUGGAUAUGGCAGUGGACGUGGAUUUGGGGAUGGCUAUAAUGGGUAUGGAUGAGGACCUGGAGGUGGCAA | 0.333 |
